Results collected from several papers.
± marks the error that the study gave.

| Structure (SMILES) | test | system | setting | Tmax [min] |
| --- | --- | --- | --- | --- |
| C=CC[N+]1([C@H]2C[C@H]3[C@@H]4CC[C@H]5C[C@H](O)[C@@H](N6CCOCC6)C[C@]5(C)[C@H]4CC[C@]3(C)[C@H]2OC(C)=O)CCCC1 | – | Sprague Dawley rat, plasma | intravenous, 0.2 mg/kg, with: vehicle IV | 0 |
| COc1c(O)cc(O)c2c(=O)cc(-c3ccccc3)oc12 | – | Sprague Dawley rat, plasma | oral, 10 g lyophilized powder/kg, high dose | 333 ± 130 |
| COc1ccc2c3c1O[C@H]1C[C@@H](OC(=O)c4ccccc4)C=C[C@@]31CCN(C)C2 | – | Wistar rat, female, blood | intravenous, 5.0 mg/kg | 4.8 |
| CN1[C@H]2CC[C@@H]1[C@@H](C(=O)O)[C@@H](OC(=O)c1ccccc1)C2 | LC-MS/MS | Sprague-Dawley rat, whole blood | intraperitoneal, 20 mg/kg of cocaine | 48.9 ± 7.11 |
| O=C(O)CCC(CP(=O)(O)O)C(=O)O (centres unmarked) | – | Wistar rat, male, dorsal root ganglion | ip, 100 mg/kg | 15 |
| COC[C@]12CN(C)[C@@H]3[C@@H]4[C@H](OC)[C@H]1[C@@]3([C@@H](OC)C[C@H]2O)[C@@H]1C[C@@]2(O)[C@H](OC(=O)c3ccccc3)[C@@H]1[C@]4(OC(C)=O)[C@@H](O)[C@@H]2OC | – | Sprague-Dawley rat, plasma | oral, dose not given, with H in PCW extract | 45 |
| CC1=C(O)C(=O)C=C2C1=CC=C1[C@@]2(C)CC[C@@]2(C)[C@@H]3C[C@](C)(C(=O)O)CC[C@]3(C)CC[C@]12C | – | rat Sprague-Dawley male pups, plasma | intraperitoneal, dose not given | 120 to 240 |
| CC(=O)c1c([O-])cc(C)oc1=O.[Na+] | – | rat Wistar male, serum | intragastric, 200 mg/kg | 56.4 ± 12 |
| CCN1C[C@]2(COC)[C@H](O)C[C@H](OC)[C@@]34[C@@H]5C[C@@]6(O)[C@H](OC(=O)c7ccccc7)[C@@H]5[C@@](OC(C)=O)([C@@H]([C@H](OC)[C@H]23)[C@@H]14)[C@@H](O)[C@@H]6OC | – | Sprague-Dawley rat, plasma | oral, dose not given, in PCW extract | 30 |
| COc1ccc([C@@H]2CC(=O)c3c(O)cc(O[C@@H]4O[C@H](CO)[C@@H](O)[C@H](O)[C@H]4O[C@@H]4O[C@@H](C)[C@H](O)[C@@H](O)[C@H]4O)cc3O2)cc1O | – | Sprague Dawley rat, plasma | oral, 3.34 g lyophilized powder/kg, low dose | 12.6 ± 9.6 |
| Cc1ccc(S(=O)(=O)Nc2c(N[C@H]3CC[C@H](NC(=O)Nc4ccc(F)c(Cl)c4)CC3)c(=O)c2=O)cc1 | – | rat, plasma | intravenous, 10 mg/kg | 1.8 |
| COc1c(O[C@@H]2O[C@H](C(=O)O)[C@@H](O)[C@H](O)[C@H]2O)cc(O)c2c(=O)cc(-c3ccccc3)oc12 | – | Sprague Dawley rat, plasma | oral, 3.34 g lyophilized powder/kg, low dose | 195 ± 137 |
| COC(=O)[C@@H]1[C@H]2CC[C@@H](C[C@@H]1O)N2C | LC-MS/MS | Sprague-Dawley rat, whole blood | intraperitoneal, 20 mg/kg of cocaine | 58.3 ± 4.64 |
| C#Cc1ccc2c(c1)C(c1ccccn1)=NCc1c(-c3cnco3)ncn1-2 | – | Sprague Dawley rat, brain | oral, 2 mg/kg, cassette dosing | ~60 |
| CC1(C)[C@@H](O)CC[C@]2(C)[C@H]3C(=O)C=C4[C@@H]5C[C@@](C)(C(=O)O)CC[C@]5(C)CC[C@@]4(C)[C@]3(C)CC[C@@H]12 | – | Sprague Dawley rat, plasma | oral, 3.34 g lyophilized powder/kg, low dose | 118 ± 63 |
| CCCCCn1cc(C(=O)Nc2cccc3ccccc23)c2ccccc21 | – | rat, plasma | intraperitoneal, 3 mg/kg, mean of 4 | 158 |
| COc1ccc([C@@H]2CC(=O)c3c(O)cc(O[C@@H]4O[C@H](CO[C@@H]5O[C@@H](C)[C@H](O)[C@@H](O)[C@H]5O)[C@@H](O)[C@H](O)[C@H]4O)cc3O2)cc1O | – | Sprague Dawley rat, plasma | oral, 3.34 g lyophilized powder/kg, low dose | 14.4 ± 8.4 |
| CCc1cc(OC)cc2c(/C=N/NC(=N)NCCc3ccc(F)cc3)c[nH]c12 | – | rat, Long-Evans, male, plasma | ip, 10 mg/kg | 480 |
| COC[C@@]12CC[C@H](OC)[C@]34C(C([C@H](OC)[C@H]13)[C@]1(OC(C)=O)[C@H]3[C@@H](OC(=O)c5ccccc5)[C@](O)(C[C@H]34)[C@@H](OC)[C@@H]1O)N(C)C2 | – | Sprague-Dawley rat, plasma | oral, dose not given, with NADES in PCW extract | 45 |
| Brc1ccc2c(c1)C(c1ccccn1)=NCc1c(-c3cnco3)ncn1-2 | – | Sprague-Dawley rat, male, plasma | oral, 2 mg/kg | 60 |
| O=C(O)[C@H]1O[C@@H](Oc2cc3oc(-c4ccc(O)cc4)cc(=O)c3c(O)c2O)[C@H](O)[C@@H](O)[C@@H]1O | – | Sprague Dawley rat, plasma | oral, 10 g lyophilized powder/kg, high dose | 361 ± 199 |
| CN1CC[C@]23c4c5ccc(O[C@@H]6O[C@H](C(=O)O)[C@@H](O)[C@H](O)[C@H]6O)c4O[C@H]2[C@@H](O)C=C[C@H]3[C@H]1C5 | – | Sprague-Dawley rat, whole blood | intraperitoneal, 10 mg/kg heroin, single heroin dose alone | 71.2 ± 10.9 |
| O=C1C[C@@H](c2ccc(O[C@@H]3O[C@H](CO)[C@@H](O)[C@H](O)[C@H]3O)cc2)Oc2cc(O)ccc21 | – | Sprague Dawley rat, plasma | oral, 3.34 g lyophilized powder/kg, low dose | 19.8 ± 19.2 |
| O=[Se](=O)([O-])[O-].[Na+].[Na+] | – | rat | intraperitoneal, 1 mg/kg | 60 |
| CC1(C)[C@@H](O[C@H]2O[C@H](C(=O)O)[C@@H](O)[C@H](O)[C@H]2O[C@@H]2O[C@H](C(=O)O)[C@@H](O)[C@H](O)[C@H]2O)CC[C@]2(C)[C@H]3C(=O)C=C4[C@@H]5C[C@@](C)(C(=O)O)CC[C@]5(C)CC[C@@]4(C)[C@]3(C)CC[C@@H]12 | – | Sprague Dawley rat, plasma | oral, 3.34 g lyophilized powder/kg, low dose | 373 ± 93.6 |
| [Se] | – | rat, plasma | intraperitoneal, 1 mg/kg, sodium selenate | 30 |

A few entries again:
| Structure (SMILES) | test | system | setting | Tmax [min] |
| --- | --- | --- | --- | --- |
| COc1c(O)cc(O)c2c(=O)cc(-c3ccccc3)oc12 | – | Sprague Dawley rat, plasma | oral, 10 g lyophilized powder/kg, high dose | 333 ± 130 |
| CC1(C)[C@@H](O[C@H]2O[C@H](C(=O)O)[C@@H](O)[C@H](O)[C@H]2O[C@@H]2O[C@H](C(=O)O)[C@@H](O)[C@H](O)[C@H]2O)CC[C@]2(C)[C@H]3C(=O)C=C4[C@@H]5C[C@@](C)(C(=O)O)CC[C@]5(C)CC[C@@]4(C)[C@]3(C)CC[C@@H]12 | – | Sprague Dawley rat, plasma | oral, 3.34 g lyophilized powder/kg, low dose | 373 ± 93.6 |
| CC1=C(O)C(=O)C=C2C1=CC=C1[C@@]2(C)CC[C@@]2(C)[C@@H]3C[C@](C)(C(=O)O)CC[C@]3(C)CC[C@]12C | – | rat Sprague-Dawley male pups, plasma | intraperitoneal, dose not given | 120 to 240 |
| CCN1C[C@]2(COC)[C@H](O)C[C@H](OC)[C@@]34[C@@H]5C[C@@]6(O)[C@H](OC(=O)c7ccccc7)[C@@H]5[C@@](OC(C)=O)([C@@H]([C@H](OC)[C@H]23)[C@@H]14)[C@@H](O)[C@@H]6OC | – | Sprague-Dawley rat, plasma | oral, dose not given, in PCW extract | 30 |
